Experimental data of several laboratories.
± marks the error that the study gave.
B1: racE T25N/S192A (Dictyostelium discoideum, UniProt Q23862); sequence looked up; chain MSEDQGSGATRVKLVVVGDGAVGKNCLLICYAQNDFPVDYVPTVFENYTATRKRGNEDIKVHLWDTAGQEEYDRLRPLSYPGADVVLLCFSTISQSSYEAIRDKWAPEVNHYIPDVPSILVGTKIDLREQQHPDPNSGKFEPITADMGISMQKQIKAKKYLEVSAKTRQGLEEVFSAAIEIVLESRGMDKKAQDGSSSASGVPSGDKPTKGKAGKKKSGCIIL
B2: CALCOCO2 1-316 (Homo sapiens, UniProt Q13137); chain MEETIKDPPTSAVLLDHCHFSQVIFNSVEKFYIPGGDVTCHYTFTQHFIPRRKDWIGIFRVGWKTTREYYTFMWVTLPIDLNNKSAKQQEVQFKAYYLPKDDEYYQFCYVDEDGVVRGASIPFQFRPENEEDILVVTTQGEVEEIEQHNKELCKENQELKDSCISLQKQNSDMQAELQKKQEELETLQSINKKLELKVKEQKDYWETELLQLKEQNQKMSSENEKMGIRVDQLQAQLSTQEKEMEKLVQGDQDKTEQLEQLKKENDHLFLSLTEQRKDQKKLEQTVEQMKQNETTAMKKQQELMDENFDLSKRLSE
B3: EndoA D265A (Drosophila melanogaster, UniProt Q8T390); sequence looked up; chain MAFAGLKKQINKANQYMTEKMGGAEGTKLDMDFMEMERKTDVTVELVEELQLKTKEFLQPNPTARAKMAAVKGISKLSGQAKSNTYPQPEGLLAECMLTYGKKLGEDNSVFAQALVEFGEALKQMADVKYSLDDNIKQNFLEPLHHMQTKDLKEVMHHRKKLQGRRLDFDCKRRRQAKDDEIRGAEDKFGESLQLAQVGMFNLLENDTEHVSQLVTFAEALYDFHSQCADVLRGLQETLQEKRSEAESRPRNEFVPKTLLDLNLAGGGGGLNEDGTPSHISSSASPLPSPMRSPAKSMAVTPQRQQQPCCQALYDFEPENPGELAFKENDIITLLNRVDDNWFEGAVNGRTGYFPQSYVQVQVPLPNGN
B4: PF1070 1-140 L70A (Pyrococcus furiosus, UniProt Q8U1Y4); sequence looked up; chain MPSSSKSDFSFSTLIIPQHYLRAILKVVSSSSVEVCGFLFGKENRVLKVRFIRNRLNSPVEFEMDPEEMAKALEEAEQENLEVVGIFHSHIACPPIPSGKDLEGMKRWPVIWLIVNEKGEYKAWILSEKNKISEVKIVVE
B5: PCK1 S62A/T66A (Arabidopsis thaliana, UniProt Q9T074); sequence looked up; chain MSAGNGNATNGDGGFSFPKGPVMPKITTGAAKRGSGVCHDDSGPTVNATTIDELHSLQKKRAAPTAPINQNAAAAFAAVSEEERQKIQLQSISASLASLTRESGPKVVRGDPAEKKTDGSTTPAYAHGQHHSIFSPATGAVSDSSLKFTHVLYNLSPAELYEQAIKYEKGSFITSNGALATLSGAKTGRAPRDKRVVRDATTEDELWWGKGSPNIEMDEHTFMVNRERAVDYLNSLEKVFVNDQYLNWDPENRIKVRIVSARAYHSLFMHNMCIRPTQEELESFGTPDFTIYNAGQFPCNRYTHYMTSSTSVDLNLARREMVILGTQYAGEMKKGLFSVMHYLMPKRRILSLHSGCNMGKDGDVALFFGLSGTGKTTLSTDHNRYLIGDDEHCWTETGVSNIEGGCYAKCVDLSREKEPDIWNAIKFGTVLENVVFDEHTREVDYSDKSVTENTRAAYPIEFIPNAKIPCVGPHPTNVILLACDAFGVLPPVSKLNLAQTMYHFISGYTALVAGTEDGIKEPTATFSACFGAAFIMLHPTKYAAMLAEKMKSQGATGWLVNTGWSGGSYGVGNRIKLAYTRKIIDAIHSGSLLKANYKKTEIFGFEIPTEIEGIPSEILDPVNSWSDKKAHKDTLVKLGGLFKKNFEVFANHKIGVDGKLTEEILAAGPIF
B6: AGR2 41-175 (Homo sapiens, UniProt O95994); sequence looked up; chain PQTLSRGWGDQLIWTQTYEEALYKSKTSNKPLMIIHHLDECPHSQALKKVFAENKEIQKLAEQFVLLNLVYETTDKHLSPDGQYVPRIMFVDPSLTVRADITGRYSNRLYAYEPADTALLLDNMKKALKLLKTEL
B7: cfbA 1-143 S11H (Methanocaldococcus jannaschii, UniProt Q58380); chain MEALVLVGHGHRLPYSKELLVKLAEKVKERNLFPIVEIGLMEFSEPTIPQAVKKAIEQGAKRIIVVPVFLAHGIHTTRDIPRLLGLIEDNHEHHHEHSHHHHHHHHHEHEKLEIPEDVEIIYREPIGADDRIVDIIIDRAFGR
B8: Per2 1-320 (Mus musculus, UniProt O54943); sequence looked up; chain MNGYVDFSPSPTSPTKEPGAPQPTQAVLQEDVDMSSGSSGNENCSTGRDSQGSDCDDNGKELRMLVESSNTHPSPDDAFRLMMTEAEHNPSTSGCSSEQSAKADAHKELIRTLKELKVHLPADKKAKGKASTLATLKYALRSVKQVKANEEYYQLLMSSESQPCSVDVPSYSMEQVEGITSEYIVKNADMFAVAVSLVSGKILYISNQVASIFHCKKDAFSDAKFVEFLAPHDVSVFHSYTTPYKLPPWSVCSGLDSFTQECMEEKSFFCRVSVGKHHENEIRYQPFRMTPYLVKVQEQQGAESQLCCLLLAERVHSGYE
B9: eno (Escherichia coli, UniProt P0A6P9); sequence looked up; chain MSKIVKIIGREIIDSRGNPTVEAEVHLEGGFVGMAAAPSGASTGSREALELRDGDKSRFLGKGVTKAVAAVNGPIAQALIGKDAKDQAGIDKIMIDLDGTENKSKFGANAILAVSLANAKAAAAAKGMPLYEHIAELNGTPGKYSMPVPMMNIINGGEHADNNVDIQEFMIQPVGAKTVKEAIRMGSEVFHHLAKVLKAKGMNTAVGDEGGYAPNLGSNAEALAVIAEAVKAAGYELGKDITLAMDCAASEFYKDGKYVLAGEGNKAFTSEEFTHFLEELTKQYPIVSIEDGLDESDWDGFAYQTKVLGDKIQLVGDDLFVTNTKILKEGIEKGIANSILIKFNQIGSLTETLAAIKMAKDAGYTAVISHRSGETEDATIADLAVGTAAGQIKTGSMSRSDRVAKYNQLIRIEEALGEKAPYNGRKEIKGQA
B10: TGFBI 45-632 (Homo sapiens, UniProt Q15582); sequence looked up; chain GPNVCAVQKVIGTNRKYFTNCKQWYQRKICGKSTVISYECCPGYEKVPGEKGCPAALPLSNLYETLGVVGSTTTQLYTDRTEKLRPEMEGPGSFTIFAPSNEAWASLPAEVLDSLVSNVNIELLNALRYHMVGRRVLTDELKHGMTLTSMYQNSNIQIHHYPNGIVTVNCARLLKADHHATNGVVHLIDKVISTITNNIQQIIEIEDTFETLRAAVAASGLNTMLEGNGQYTLLAPTNEAFEKIPSETLNRILGDPEALRDLLNNHILKSAMCAEAIVAGLSVETLEGTTLEVGCSGDMLTINGKAIISNKDILATNGVIHYIDELLIPDSAKTLFELAAESDVSTAIDLFRQAGLGNHLSGSERLTLLAPLNSVFKDGTPPIDAHTRNLLRNHIIKDQLASKYLYHGQTLETLGGKKLRVFVYRNSLCIENSCIAAHDKRGRYGTLFTMDRVLTPPMGTVMDVLKGDNRFSMLVAAIQSAGLTETLNREGVYTVFAPTNEAFRALPPRERSRLLGDAKELANILKYHIGDEILVSGGIGALVRLKSLQGDKLEVSLKNNVVSVNKEPVAEPDIMATNGVVHVITNVL
B11: INHBA mature (Homo sapiens, UniProt P08476); sequence looked up; chain GLECDGKVNICCKKQFFVSFKDIGWNDWIIAPSGYHANYCEGECPSHIAGTSGSSLSFHSTVINHYRMRGHSPFANLKSCCVPTKLRPMSMLYYDDGQNIIKKDIQNMIVEECGCS
B12: tebp-1 (Caenorhabditis elegans, UniProt O62329); sequence looked up; chain MSSRAKKNKPSRPSFDDELTIWEFIHENTCNMEMFNEVNLDLFKEYLQEHESVFTAEQLYEYYVTTMKATLYKCEMEPEKMLTLYKNLEIEVTPHVEILLEAKFKTVLRVDSNRRLQKFSDFSARPVTCGSVSRKEKVPETIPETLEETVPETVPEPERLQNRMPLDVEISDSFEKAMWNHVSQNAARLTGKFLMTEQFWAELLQSQPNIPIKSAHIVLHHFNEMMLENLWKQAMDPDAKLQILKDLSVPLSYHQRKWILDNDRLDVALSLDGYVVSWDIVR
B13: HARS1 1-509 (Homo sapiens, UniProt P12081-1); chain MAERAALEELVKLQGERVRGLKQQKASAELIEEEVAKLLKLKAQLGPDESKQKFVLKTPKGTRDYSPRQMAVREKVFDVIIRCFKRHGAEVIDTPVFELKETLMGKYGEDSKLIYDLKDQGGELLSLRYDLTVPFARYLAMNKLTNIKRYHIAKVYRRDNPAMTRGRYREFYQCDFDIAGNFDPMIPDAECLKIMCEILSSLQIGDFLVKVNDRRILDGMFAICGVSDSKFRTICSSVDKLDKVSWEEVKNEMVGEKGLAPEVADRIGDYVQQHGGVSLVEQLLQDPKLSQNKQALEGLGDLKLLFEYLTLFGIDDKISFDLSLARGLDYYTGVIYEAVLLQTPAQAGEEPLGVGSVAAGGRYDGLVGMFDPKGRKVPCVGLSIGVERIFSIVEQRLEALEEKIRTTETQVLVASAQKKLLEERLKLVSELWDAGIKAELLYKKNPKLLNQLQYCEEAGIPLVAIIGEQELKDGVIKLRSVTSREEVDVRREDLVEEIKRRTGQPLCIC
B14: HOGA1 26-327 (Homo sapiens, UniProt Q86XE5); sequence looked up; chain ASGEGKKVDIAGIYPPVTTPFTATAEVDYGKLEENLHKLGTFPFRGFVVQGSNGEFPFLTSSERLEVVSRVRQAMPKNRLLLAGSGCESTQATVEMTVSMAQVGADAAMVVTPCYYRGRMSSAALIHHYTKVADLSPIPVVLYSVPANTGLDLPVDAVVTLSQHPNIVGMKDSGGDVTRIGLIVHKTRKQDFQVLAGSAGFLMASYALGAVGGVCALANVLGAQVCQLERLCCTGQWEDAQKLQHRLIEPNAAVTRRFGIPGLKKIMDWFGYYGGPCRAPLQELSPAEEEALRMDFTSNGWL
B15: TGFBI FAS1-4 domain, residues 502-657 A546T (Homo sapiens, UniProt Q15582); chain AGMGTVMDVLKGDNRFSMLVAAIQSAGLTETLNREGVYTVFAPTNETFRALPPRERSRLLGDAKELANILKYHIGDEILVSGGIGALVRLKSLQGDKLEVSLKNNVVSVNKEPVAEPDIMATNGVVHVITNVLQPPANRPQERGDELADSALEIFKQA
B16: Sting1 138-378 (Mus musculus, UniProt Q3TBT3); sequence looked up; chain LTPAEVSAVCEEKKLNVAHGLAWSYYIGYLRLILPGLQARIRMFNQLHNNMLSGAGSRRLYILFPLDCGVPDNLSVVDPNIRFRDMLPQQNIDRAGIKNRVYSNSVYEILENGQPAGVCILEYATPLQTLFAMSQDAKAGFSREDRLEQAKLFCRTLEEILEDVPESRNNCRLIVYQEPTDGNSFSLSQEVLRHIRQEEKEEVTMNAPMTSVAPPPSVLSQEPRLLISGMDQPLPLRTDLI

Molecule	target or system	technique	form	setting	quantity	value
TACTTGAAGTTGACAATATTATTTAAGGACCTATTTCAAGTCAATCGGTCC (dsDNA; 5'-amino-C6 primer)	SPT15 full length assumed (Saccharomyces cerevisiae, UniProt P13393)	array	double-stranded DNA, one strand shown	TBP alone	Kd	25.4 ± 5.21 nM
B1 (racE T25N/S192A)	itself	SEC	–	–	subunits per oligomer	2
GroEL (Pseudomonas aeruginosa, UniProt P30718)	itself	SEC-MALS	–	–	subunits per oligomer	14
B2 (CALCOCO2 1-316)	itself	AUC (sedimentation velocity)	–	–	subunits per oligomer	2
B3 (EndoA D265A)	itself	SEC-SAXS	–	–	subunits per oligomer	2
B4 (PF1070 1-140 L70A)	itself	SEC	–	–	subunits per oligomer	2
B5 (PCK1 S62A/T66A)	itself	native PAGE	–	–	subunits per oligomer	6
B6 (AGR2 41-175)	itself	SEC	–	–	subunits per oligomer	2
B7 (cfbA 1-143 S11H)	itself	SEC	–	–	subunits per oligomer	2
B8 (Per2 1-320)	itself	SEC	–	–	subunits per oligomer	2
B9 (eno)	itself	native MS	–	–	subunits per oligomer	2
B10 (TGFBI 45-632)	itself	SEC	–	–	subunits per oligomer	2
B11 (INHBA mature)	itself	western blot	–	–	subunits per oligomer	2
B12 (tebp-1)	itself	SEC-MALS	–	–	subunits per oligomer	2
B13 (HARS1 1-509)	itself	SEC	–	–	subunits per oligomer	2
B14 (HOGA1 26-327)	itself	SEC	–	wild type	subunits per oligomer	4
B15	itself	cross-linking	–	–	subunits per oligomer	2
B16 (Sting1 138-378)	itself	SEC	–	–	subunits per oligomer	2

Repeated from above:
Molecule	target or system	technique	form	setting	quantity	value
GroEL (Pseudomonas aeruginosa, UniProt P30718)	itself	SEC-MALS	–	–	subunits per oligomer	14
